Values quoted from earlier work, collected from citations in different studies.
Protocols differ between the studies behind these lines. ± gives the spread as reported.
CNR1: Cannabinoid receptor 1 (CNR1, Homo sapiens, UniProt P21554)

Chains of the proteins cited; added tags and fusions are not shown. Residues count along the entry.
UniProt P21554, whole entry: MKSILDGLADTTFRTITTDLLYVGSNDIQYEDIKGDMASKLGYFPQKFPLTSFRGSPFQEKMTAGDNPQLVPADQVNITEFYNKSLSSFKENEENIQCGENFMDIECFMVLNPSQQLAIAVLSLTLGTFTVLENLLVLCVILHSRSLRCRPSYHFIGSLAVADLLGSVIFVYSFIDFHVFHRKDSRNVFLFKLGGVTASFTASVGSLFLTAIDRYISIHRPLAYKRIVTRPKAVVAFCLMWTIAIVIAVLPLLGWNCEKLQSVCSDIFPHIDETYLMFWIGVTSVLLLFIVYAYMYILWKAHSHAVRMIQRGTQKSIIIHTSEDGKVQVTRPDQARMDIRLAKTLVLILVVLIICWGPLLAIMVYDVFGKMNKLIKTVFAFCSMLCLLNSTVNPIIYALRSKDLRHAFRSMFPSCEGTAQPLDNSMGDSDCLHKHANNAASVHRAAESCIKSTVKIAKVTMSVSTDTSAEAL
UniProt P42264, 32-919 limits assumed: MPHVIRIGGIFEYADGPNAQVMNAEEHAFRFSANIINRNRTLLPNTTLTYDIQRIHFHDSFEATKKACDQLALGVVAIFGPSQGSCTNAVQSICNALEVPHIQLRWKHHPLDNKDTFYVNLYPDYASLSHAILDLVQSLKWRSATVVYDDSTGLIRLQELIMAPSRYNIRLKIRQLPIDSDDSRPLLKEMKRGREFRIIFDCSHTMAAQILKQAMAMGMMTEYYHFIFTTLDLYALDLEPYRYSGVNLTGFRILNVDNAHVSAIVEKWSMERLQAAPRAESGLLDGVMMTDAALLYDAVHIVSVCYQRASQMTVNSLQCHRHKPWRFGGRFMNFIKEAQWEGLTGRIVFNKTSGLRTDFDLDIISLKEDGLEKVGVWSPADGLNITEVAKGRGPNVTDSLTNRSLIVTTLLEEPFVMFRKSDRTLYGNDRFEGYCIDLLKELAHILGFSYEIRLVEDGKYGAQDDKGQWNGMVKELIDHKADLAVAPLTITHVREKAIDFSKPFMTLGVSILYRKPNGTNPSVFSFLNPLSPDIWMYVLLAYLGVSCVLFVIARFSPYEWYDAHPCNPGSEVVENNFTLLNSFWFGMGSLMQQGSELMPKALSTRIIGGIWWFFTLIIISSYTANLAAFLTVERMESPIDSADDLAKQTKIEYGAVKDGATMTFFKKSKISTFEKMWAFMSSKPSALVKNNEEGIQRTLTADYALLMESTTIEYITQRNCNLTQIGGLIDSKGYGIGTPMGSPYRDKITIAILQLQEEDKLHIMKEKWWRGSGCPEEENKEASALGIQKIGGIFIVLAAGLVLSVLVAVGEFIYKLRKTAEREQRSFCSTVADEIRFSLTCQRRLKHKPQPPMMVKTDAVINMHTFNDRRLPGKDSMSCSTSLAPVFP
UniProt O15379, whole entry, looked up: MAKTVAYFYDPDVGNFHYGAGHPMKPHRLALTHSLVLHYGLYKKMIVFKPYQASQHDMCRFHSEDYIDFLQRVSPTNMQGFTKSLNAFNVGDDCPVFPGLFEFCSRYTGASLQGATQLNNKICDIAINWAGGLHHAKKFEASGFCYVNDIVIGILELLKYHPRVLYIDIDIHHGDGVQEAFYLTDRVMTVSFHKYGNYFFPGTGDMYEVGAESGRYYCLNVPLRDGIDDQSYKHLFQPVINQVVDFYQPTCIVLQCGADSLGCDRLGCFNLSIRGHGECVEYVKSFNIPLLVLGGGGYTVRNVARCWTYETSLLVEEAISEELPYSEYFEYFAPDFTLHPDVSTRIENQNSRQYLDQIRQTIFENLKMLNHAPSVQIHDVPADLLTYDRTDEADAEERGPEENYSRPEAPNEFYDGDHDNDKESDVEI
UniProt P38398, whole entry, looked up: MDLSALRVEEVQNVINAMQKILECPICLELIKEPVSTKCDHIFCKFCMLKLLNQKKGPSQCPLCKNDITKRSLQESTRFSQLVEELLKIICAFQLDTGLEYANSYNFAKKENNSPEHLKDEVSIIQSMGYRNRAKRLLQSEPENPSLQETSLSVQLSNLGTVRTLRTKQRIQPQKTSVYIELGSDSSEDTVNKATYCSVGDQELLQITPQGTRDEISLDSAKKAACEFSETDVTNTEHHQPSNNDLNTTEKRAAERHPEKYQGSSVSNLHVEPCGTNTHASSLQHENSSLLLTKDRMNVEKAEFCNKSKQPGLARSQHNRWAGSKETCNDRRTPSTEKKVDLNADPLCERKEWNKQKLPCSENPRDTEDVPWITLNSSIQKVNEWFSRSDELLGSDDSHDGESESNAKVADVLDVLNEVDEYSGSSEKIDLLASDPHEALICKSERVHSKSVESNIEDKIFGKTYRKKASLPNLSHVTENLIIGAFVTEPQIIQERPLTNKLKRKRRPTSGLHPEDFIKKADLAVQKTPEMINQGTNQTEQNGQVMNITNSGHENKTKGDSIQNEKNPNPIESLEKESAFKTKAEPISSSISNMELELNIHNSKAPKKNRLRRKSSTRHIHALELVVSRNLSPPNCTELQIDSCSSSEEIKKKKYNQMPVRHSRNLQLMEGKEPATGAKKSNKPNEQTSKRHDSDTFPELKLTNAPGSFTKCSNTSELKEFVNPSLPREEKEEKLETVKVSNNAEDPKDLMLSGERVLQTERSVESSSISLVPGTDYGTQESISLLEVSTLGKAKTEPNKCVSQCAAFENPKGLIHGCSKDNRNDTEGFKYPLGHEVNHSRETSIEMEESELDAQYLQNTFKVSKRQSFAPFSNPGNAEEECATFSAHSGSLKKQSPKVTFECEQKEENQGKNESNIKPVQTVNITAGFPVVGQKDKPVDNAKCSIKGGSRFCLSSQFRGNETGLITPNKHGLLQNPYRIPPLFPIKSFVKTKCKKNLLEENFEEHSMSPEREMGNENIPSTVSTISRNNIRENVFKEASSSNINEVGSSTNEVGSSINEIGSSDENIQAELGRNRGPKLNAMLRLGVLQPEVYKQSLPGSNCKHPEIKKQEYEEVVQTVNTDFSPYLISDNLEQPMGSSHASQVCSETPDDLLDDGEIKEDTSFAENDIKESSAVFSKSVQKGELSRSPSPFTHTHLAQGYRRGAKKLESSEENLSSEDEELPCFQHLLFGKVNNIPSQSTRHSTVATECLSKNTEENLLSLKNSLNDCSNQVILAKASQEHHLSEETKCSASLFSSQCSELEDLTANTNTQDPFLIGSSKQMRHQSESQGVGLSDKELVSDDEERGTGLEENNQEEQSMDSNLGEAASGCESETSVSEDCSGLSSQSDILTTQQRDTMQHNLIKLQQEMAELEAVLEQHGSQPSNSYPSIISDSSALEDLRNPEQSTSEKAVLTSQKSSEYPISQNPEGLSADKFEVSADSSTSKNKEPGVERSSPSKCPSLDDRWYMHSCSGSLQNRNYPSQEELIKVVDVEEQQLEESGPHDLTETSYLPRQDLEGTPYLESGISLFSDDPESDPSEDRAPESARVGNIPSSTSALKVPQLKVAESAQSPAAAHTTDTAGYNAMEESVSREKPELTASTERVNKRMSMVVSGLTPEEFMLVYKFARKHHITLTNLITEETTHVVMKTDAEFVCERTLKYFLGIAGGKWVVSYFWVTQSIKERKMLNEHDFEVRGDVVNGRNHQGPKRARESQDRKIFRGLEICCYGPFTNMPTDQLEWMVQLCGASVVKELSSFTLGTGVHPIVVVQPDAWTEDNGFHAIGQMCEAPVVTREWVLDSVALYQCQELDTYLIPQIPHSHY
UniProt P22756, 31-920 isoform 4 limits assumed: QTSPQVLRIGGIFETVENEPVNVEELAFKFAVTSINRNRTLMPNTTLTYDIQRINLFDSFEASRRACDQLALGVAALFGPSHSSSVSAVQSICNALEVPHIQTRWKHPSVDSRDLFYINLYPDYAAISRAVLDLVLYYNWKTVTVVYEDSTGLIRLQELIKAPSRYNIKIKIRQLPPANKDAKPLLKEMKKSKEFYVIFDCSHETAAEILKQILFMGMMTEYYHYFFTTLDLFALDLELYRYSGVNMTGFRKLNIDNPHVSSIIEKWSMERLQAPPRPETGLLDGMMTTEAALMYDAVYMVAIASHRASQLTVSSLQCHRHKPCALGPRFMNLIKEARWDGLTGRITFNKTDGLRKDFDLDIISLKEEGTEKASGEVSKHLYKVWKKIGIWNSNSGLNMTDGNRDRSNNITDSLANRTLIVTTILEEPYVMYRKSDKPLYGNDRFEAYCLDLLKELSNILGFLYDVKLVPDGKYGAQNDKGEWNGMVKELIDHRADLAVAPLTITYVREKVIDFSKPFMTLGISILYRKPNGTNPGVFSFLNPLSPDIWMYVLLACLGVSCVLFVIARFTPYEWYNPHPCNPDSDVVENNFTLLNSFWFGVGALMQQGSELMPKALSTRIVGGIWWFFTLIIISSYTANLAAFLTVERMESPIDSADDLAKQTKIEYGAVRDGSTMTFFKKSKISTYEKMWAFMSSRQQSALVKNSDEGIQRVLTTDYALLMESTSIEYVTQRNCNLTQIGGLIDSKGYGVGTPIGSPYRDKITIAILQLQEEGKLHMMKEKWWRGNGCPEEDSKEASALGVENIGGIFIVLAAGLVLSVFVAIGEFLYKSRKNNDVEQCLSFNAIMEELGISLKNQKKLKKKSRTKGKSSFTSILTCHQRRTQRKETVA
UniProt Q9GZQ6, whole entry: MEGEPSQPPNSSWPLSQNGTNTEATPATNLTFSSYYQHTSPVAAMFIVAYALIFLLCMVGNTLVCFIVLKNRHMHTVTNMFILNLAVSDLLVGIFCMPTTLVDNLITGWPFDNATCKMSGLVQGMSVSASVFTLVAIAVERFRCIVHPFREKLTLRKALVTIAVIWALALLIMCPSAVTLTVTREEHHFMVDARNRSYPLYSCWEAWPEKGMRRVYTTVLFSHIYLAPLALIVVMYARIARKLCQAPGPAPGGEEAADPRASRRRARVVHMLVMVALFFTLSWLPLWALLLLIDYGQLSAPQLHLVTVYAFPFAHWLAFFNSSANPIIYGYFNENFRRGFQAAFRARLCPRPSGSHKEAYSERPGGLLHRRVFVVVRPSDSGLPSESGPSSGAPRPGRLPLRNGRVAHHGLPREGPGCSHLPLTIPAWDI
UniProt Q86U86, 653-763 limits assumed: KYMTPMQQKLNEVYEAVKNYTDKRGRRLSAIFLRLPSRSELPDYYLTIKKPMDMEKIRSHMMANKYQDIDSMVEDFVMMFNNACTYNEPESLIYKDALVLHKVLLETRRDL
UniProt P56524, whole entry: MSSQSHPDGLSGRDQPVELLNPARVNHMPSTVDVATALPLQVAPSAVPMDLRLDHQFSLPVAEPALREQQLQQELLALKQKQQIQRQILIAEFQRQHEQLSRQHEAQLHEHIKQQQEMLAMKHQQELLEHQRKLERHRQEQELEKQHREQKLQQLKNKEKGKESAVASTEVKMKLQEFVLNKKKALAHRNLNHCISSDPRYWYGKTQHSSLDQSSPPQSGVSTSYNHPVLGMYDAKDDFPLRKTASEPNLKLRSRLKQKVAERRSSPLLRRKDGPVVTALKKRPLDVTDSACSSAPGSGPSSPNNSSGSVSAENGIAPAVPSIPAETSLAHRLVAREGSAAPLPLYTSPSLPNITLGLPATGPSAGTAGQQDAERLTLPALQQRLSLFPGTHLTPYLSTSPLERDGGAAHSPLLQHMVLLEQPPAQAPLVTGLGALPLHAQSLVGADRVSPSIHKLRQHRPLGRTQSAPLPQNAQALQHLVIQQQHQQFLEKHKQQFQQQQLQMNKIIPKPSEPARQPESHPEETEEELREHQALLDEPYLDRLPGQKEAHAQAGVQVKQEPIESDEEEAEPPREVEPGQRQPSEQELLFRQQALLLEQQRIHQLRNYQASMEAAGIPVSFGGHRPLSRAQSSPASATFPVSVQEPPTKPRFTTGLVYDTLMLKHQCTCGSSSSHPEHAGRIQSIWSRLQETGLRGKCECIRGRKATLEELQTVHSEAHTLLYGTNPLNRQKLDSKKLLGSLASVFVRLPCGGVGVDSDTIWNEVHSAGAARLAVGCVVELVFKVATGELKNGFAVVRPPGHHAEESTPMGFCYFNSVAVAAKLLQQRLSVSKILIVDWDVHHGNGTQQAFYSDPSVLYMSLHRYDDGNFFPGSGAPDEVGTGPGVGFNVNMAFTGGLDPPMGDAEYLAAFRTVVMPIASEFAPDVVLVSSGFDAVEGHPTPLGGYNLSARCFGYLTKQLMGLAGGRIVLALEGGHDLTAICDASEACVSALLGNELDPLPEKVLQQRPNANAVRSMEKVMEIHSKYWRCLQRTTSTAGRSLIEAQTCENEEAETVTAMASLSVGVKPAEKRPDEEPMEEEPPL
UniProt P30542, whole entry: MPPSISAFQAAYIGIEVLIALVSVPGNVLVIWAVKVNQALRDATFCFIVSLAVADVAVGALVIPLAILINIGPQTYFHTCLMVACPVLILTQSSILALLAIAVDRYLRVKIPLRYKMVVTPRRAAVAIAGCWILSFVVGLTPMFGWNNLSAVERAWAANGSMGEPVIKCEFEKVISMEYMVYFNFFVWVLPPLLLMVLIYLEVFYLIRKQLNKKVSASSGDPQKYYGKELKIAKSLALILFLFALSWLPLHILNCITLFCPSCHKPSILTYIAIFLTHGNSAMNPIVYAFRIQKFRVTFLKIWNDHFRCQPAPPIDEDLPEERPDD

| Compound | target or system | assay | system | setting | how to read | measurement | result |
| --- | --- | --- | --- | --- | --- | --- | --- |
| O=C(O)c1cc([C@H]2CCN[C@@H]2C(=O)O)ccc1O | Glutamate receptor ionotropic, kainate 3 (Rattus norvegicus, UniProt P42264) | binding | – | – | baseline: analog lacking 4-hydroxy group, higher = stronger binding | affinity ratio | 10 fold |
| CC(=O)NCCCC[C@H](NC(=O)CNC(=O)[C@H](CC(C)C)NC(C)=O)C(=O)Nc1ccc2c(C)cc(=O)oc2c1 | Histone deacetylase 3/Nuclear receptor corepressor 2 (HDAC3/NCoR2) (Homo sapiens, UniProt O15379+Q9Y618) | substrate | – | – | – | Km | 6 µM |
| O=C(CC1CCCCC1)NC1CCN(c2ncnc3c2nc(-c2ccccc2Cl)n3-c2ccc(Cl)cc2)CC1 | CNR1 | antagonist | – | – | – | Ke | 2 nM |
| CC(=O)N[C@@H](CO)C(=O)N[C@@H](CCCNC(=N)N)C(=O)N[C@@H](CO)C(=O)N[C@H](C(=O)N[C@@H](COP(=O)(O)O)C(=O)N1CCC[C@H]1C(=O)N[C@H](C(=O)N[C@@H](Cc1ccccc1)C(=O)N[C@@H](CC(N)=O)C(=O)N[C@@H](CCCCN)C(N)=O)[C@@H](C)O)[C@@H](C)O | Breast cancer type 1 susceptibility protein, BRCT domain (BRCA1, Homo sapiens, UniProt P38398) | binding, ITC | – | – | – | ΔG | -8.7 ± 0.2 kcal/mol |
| CCN1CCN(Cc2cnc(Nc3cc(-c4cc(F)c5nc(C)n(C(C)C)c5c4)ncn3)cn2)CC1 | CDK4/6 | kinase activity, inhibitor | – | – | – | IC50 | 19 µM |
| CCC[C@@H]1CN[C@H](C(=O)O)[C@H]1c1cccc(C(=O)O)c1 | Glutamate receptor ionotropic, kainate 1 (Rattus norvegicus, UniProt P22756) | – | – | – | baseline: GluK3 Ki over GluK1 Ki | selectivity ratio | 4 fold |
| O=S(=O)(NC1CCN(c2ncnc3c2nc(-c2ccccc2Cl)n3-c2ccc(Cl)cc2)CC1)c1ccccc1 | CNR1 | antagonist | – | – | – | Ke | 0.3 nM |
| N=C(N)NCCC[C@H](NC(=O)c1ccccc1-c1ccccc1)C(=O)N[C@@H](Cc1ccccc1)C(N)=O | Neuropeptide FF receptor 1 (NPFFR1, Homo sapiens, UniProt Q9GZQ6) | antagonist | – | – | baseline: Ki NPFF2-R over NPFF1-R | selectivity ratio | 1840 fold |
| Cc1cc(C)cc(Nc2nccc(-c3c(-c4ccc(F)cc4)ncn3C3CCNCC3)n2)c1 | Protein polybromo-1, BD5 (PBRM1, Homo sapiens, UniProt Q86U86) | – | – | concentration not given | – | inhibition | > 35% |
| CC(=O)N[C@@H](CC(C)C)C(=O)NCC(=O)N[C@@H](CCCCNC(=O)C(F)(F)F)C(=O)Nc1ccc2c(C)cc(=O)oc2c1 | Histone deacetylase 4 (HDAC4, Homo sapiens, UniProt P56524) | substrate | – | – | – | Km | 10.3 µM |
| CC(C)Nc1nc(Cl)nc2c1ncn2[C@H]1[C@H](O)[C@H](O)[C@@H]2C[C@@H]21 | Adenosine receptor A1 (ADORA1, Homo sapiens, UniProt P30542) | cAMP production inhibition, agonist | CHO cells, receptor-transfected | 10 µM, with: forskolin | baseline: reference full agonist | Emax | 50.5 ± 6.4% |
| CS(=O)(=O)NC1CCN(c2ncnc3c2nc(-c2ccccc2Cl)n3-c2ccc(Cl)cc2)CC1 | CNR1 | binding | – | – | baseline: Ki CB2 over Ki CB1 | selectivity ratio | 37 |
| CN1C(=O)Cc2c([nH]c3ccc(Br)cc23)-c2ccccc21 | CDK4/6 | – | – | – | – | IC50 | 0.0008 µM |
| CCC(C)NC(=O)CSc1nnc(Nc2ccc(C(C)C)cc2)s1 (stereo not drawn) | WI-38 | cytotoxicity | – | – | – | IC50 | > 100 µM |
| CCCCC(=O)NC1CCN(c2ncnc3c2nc(-c2ccccc2Cl)n3-c2ccc(Cl)cc2)CC1 | CNR1 | binding | – | – | baseline: Ki CB2 over Ki CB1 | selectivity ratio | 53 |
| O=C(O)C1=CCCN(CCON=C(c2ccccc2)c2ccccc2)C1 | Sodium- and chloride-dependent GABA transporter 1 (Slc6a1, Rattus norvegicus, UniProt P23978) | – | – | – | – | Hill coefficient | 1.1 |
| CNC(=O)[C@@]12C[C@@H]1[C@@H](n1cnc3c(NCCc4ccc(OC)c(OC)c4)nc(C#Cc4ccc(Cl)s4)nc31)[C@H](O)[C@@H]2O | – | – | simulated intestinal fluid | 120 min | – | remaining compound | 100% |
| CC(=O)NCCCC[C@H](NC(=O)CNC(=O)[C@H](CC(C)C)NC(C)=O)C(=O)Nc1ccc2c(C)cc(=O)oc2c1 | Histone deacetylase 3 (HDAC3, Homo sapiens, UniProt O15379) | substrate | – | – | – | Km | 5.4 µM |

A few entries again:
| Compound | target or system | assay | system | setting | how to read | measurement | result |
| --- | --- | --- | --- | --- | --- | --- | --- |
| N=C(N)NCCC[C@H](NC(=O)c1ccccc1-c1ccccc1)C(=O)N[C@@H](Cc1ccccc1)C(N)=O | Neuropeptide FF receptor 1 (NPFFR1, Homo sapiens, UniProt Q9GZQ6) | antagonist | – | – | baseline: Ki NPFF2-R over NPFF1-R | selectivity ratio | 1840 fold |
| O=C(O)c1cc([C@H]2CCN[C@@H]2C(=O)O)ccc1O | Glutamate receptor ionotropic, kainate 3 (Rattus norvegicus, UniProt P42264) | binding | – | – | baseline: analog lacking 4-hydroxy group, higher = stronger binding | affinity ratio | 10 fold |
| CC(=O)NCCCC[C@H](NC(=O)CNC(=O)[C@H](CC(C)C)NC(C)=O)C(=O)Nc1ccc2c(C)cc(=O)oc2c1 | Histone deacetylase 3/Nuclear receptor corepressor 2 (HDAC3/NCoR2) (Homo sapiens, UniProt O15379+Q9Y618) | substrate | – | – | – | Km | 6 µM |
